Experimental data from different studies.
Every numbered part comes from another study and shows a few of its results, in no order. Positions count from the first letter of the parent shown.

Set 1 — method: protein-binding microarray; molecule type: double-stranded DNA, one strand shown; matrix: in vitro; tested at: 940 nM top; setting: 60-bp whole probe; with: salmon DNA 0.4 mg/ml; reference: random background probes; direction: higher = stronger binding; endpoint: fitted relative affinity
Target: Interferon regulatory factor 5, full length, phosphomimetic (IRF5, Homo sapiens, UniProt Q13568-2, residues 1-514, S451D/S453D/S456D/S462D)
All sequences stand within: GCCTAGCAC … GTGCTAGGTCTTGATTCGCTTGACGCTGCTG
Oligonucleotide = TTAGGTTTCCTTCTCATTTA; value = 2.1 z-score
Oligonucleotide = TCAGATAACTTTTTTTTACT; value = 0.355 z-score
Oligonucleotide = GACGGTTTCAGTTTCGGGAC; value = 8.33 z-score
Oligonucleotide = GACGGTATCGGTCTCGGGCC; value = 8.31 z-score
Oligonucleotide = CTCGTTTACATTTTCCAAAT; value = 0.463 z-score
Oligonucleotide = GACGATATCAGTCCCGAGAC; value = 0.292 z-score

Set 2 — target: CCNA1, cyclin fold, Cln2 fusion (human); method: yeast growth competition, sequencing; matrix: yeast; setting: weak parent motif; reference: not given; direction: higher = stronger binding; endpoint: normalised enrichment score
Starting sequence: BRCA2 docking peptide (human); PSIKRNLLNEFDR
Variant = K4C; value = 0.874
Variant = N6Q; value = 0.124
Variant = S2C; value = 0.147
Variant = I3Q; value = 0.0762
Variant = F11N; value = 0.161
Variant = P1K; value = 0.514
Variant = R13Y; value = 0.624
Variant = E10L; value = 0.286

Set 3 — method: universal PBM; molecule type: double-stranded DNA, one strand shown; matrix: in vitro; tested at: 600 nM; direction: higher = stronger binding; endpoint: E-score
Target: Sal-like protein 4, full length isoform A (SALL4, Homo sapiens, UniProt Q9UJQ4, residues 1-1053)
Sequence of UniProt Q9UJQ4 (whole entry, looked up): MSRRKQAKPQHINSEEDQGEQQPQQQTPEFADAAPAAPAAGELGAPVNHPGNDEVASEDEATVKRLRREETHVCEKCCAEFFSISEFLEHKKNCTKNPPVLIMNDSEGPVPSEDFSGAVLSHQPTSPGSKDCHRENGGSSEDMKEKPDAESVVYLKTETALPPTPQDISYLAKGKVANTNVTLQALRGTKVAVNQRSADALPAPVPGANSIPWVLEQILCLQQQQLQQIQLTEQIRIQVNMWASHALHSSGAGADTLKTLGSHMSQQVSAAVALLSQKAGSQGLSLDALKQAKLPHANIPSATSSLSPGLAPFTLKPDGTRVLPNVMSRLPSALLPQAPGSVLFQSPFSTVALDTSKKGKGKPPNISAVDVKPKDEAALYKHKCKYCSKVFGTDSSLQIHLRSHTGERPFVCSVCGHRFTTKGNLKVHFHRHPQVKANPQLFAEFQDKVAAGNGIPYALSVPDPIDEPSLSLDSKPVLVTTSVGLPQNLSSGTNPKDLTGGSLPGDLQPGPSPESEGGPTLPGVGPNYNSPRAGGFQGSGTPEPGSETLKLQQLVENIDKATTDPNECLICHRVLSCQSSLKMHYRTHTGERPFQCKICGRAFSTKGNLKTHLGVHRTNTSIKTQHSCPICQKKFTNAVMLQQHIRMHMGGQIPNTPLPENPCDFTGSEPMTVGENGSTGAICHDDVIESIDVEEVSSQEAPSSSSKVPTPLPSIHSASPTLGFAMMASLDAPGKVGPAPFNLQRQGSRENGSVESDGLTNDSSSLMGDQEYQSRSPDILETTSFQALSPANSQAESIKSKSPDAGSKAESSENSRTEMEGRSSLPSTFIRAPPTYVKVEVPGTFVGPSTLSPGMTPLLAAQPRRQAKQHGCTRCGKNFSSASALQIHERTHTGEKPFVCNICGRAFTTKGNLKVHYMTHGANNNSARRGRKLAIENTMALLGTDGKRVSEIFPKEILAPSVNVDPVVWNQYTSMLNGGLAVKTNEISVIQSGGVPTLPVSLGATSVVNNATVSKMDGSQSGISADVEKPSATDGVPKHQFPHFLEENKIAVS
Setting: 8-mer, flanks averaged, mean of replicates
Oligonucleotide = TGGTGCAA; value = -0.0231
Oligonucleotide = GAAGTTGC; value = -0.224
Oligonucleotide = TAACAGTA; value = 0.233
Oligonucleotide = ATAACGCG; value = 0.0284
Oligonucleotide = ATTTGTTG; value = 0.243
Oligonucleotide = ACCCATCA; value = -0.103
Oligonucleotide = TCGAGACA; value = -0.0137

Single results of other studies
Substance = PhoQ, residues 284 288 289 292 302 303 SVHLDV; target = PhoP, residues 12 14 15 18 19 AQALL (Escherichia coli, UniProt P23836); assay = Sort-seq, refers to: YFP reporter; test system = E. coli; setting = PhoQ-PhoP variant library, with: 10 µM Mg2+; how to read = reference: high Mg2+ state, higher = stronger signaling; endpoint = fold induction; value = 7.71

Excerpt of the above (set 1):
Oligonucleotide = GACGATATCAGTCCCGAGAC; value = 0.292 z-score
